{"data": "Experimental data pooled from the literature", "note": "Values joined by “and” are separate records of one study, mostly repeats; a detail may differ. Numbers after ± are the reported error."}
{"SMILES": "CC(C)(c1ccc(O)cc1)c1ccc(O)cc1", "cell line": "HepG2 spheroids, dissociated", "assay": "annexin V-FITC/PI flow cytometry", "conditions": "0.10 µM, 96 h", "measurement": "early apoptotic cells", "value": "6.2 ± 4.03%"}
{"SMILES": "CCCCSCCCNC(=O)C1CCN(Cc2nc(-c3ccc(CC)cc3)oc2C)CC1", "cell line": "Vero-E6", "assay": "CellTiter-Glo ATP", "conditions": "concentration not given, 72 h, retest 8-point duplicates", "scale": "relative to: DMSO 0%, hyamine -100%, more negative, more toxic", "measurement": "cytotoxicity efficacy", "value": "-21.3%"}
{"SMILES": "Cc1nnc(Nc2ccnc3ccc(-c4ccc(S(=O)(=O)N5CCOCC5)cc4)cc23)nc1C", "cell line": "NIH 3T3", "assay": "cytotoxicity, PrestoBlue", "conditions": "96 h, 2% FBS", "measurement": "TC50", "value": "> 20 µM"}
{"SMILES": "c1ccc2oc(-c3nn4c(Cn5nnc6ccccc65)nnc4s3)cc2c1", "cell line": "HEp-2", "assay": "cytotoxicity", "measurement": "CC50", "value": "> 100 µM"}
{"SMILES": "Cc1cc(C(C)(C)c2ccc(O)c(C)c2)ccc1O", "cell line": "HepG2 spheroids, dissociated", "assay": "annexin V-FITC/PI flow cytometry", "conditions": "0.01 µM, 96 h", "measurement": "viable cells", "value": "37.8 ± 2.55%"}
{"SMILES": "O=c1ccc2ccccc2o1", "cell line": "NHEK", "assay": "cell count", "conditions": "concentration not given, 24 h, PGC1alpha mitochondrial stress panel", "measurement": "chance response", "value": "4.58%"}
{"SMILES": "CCn1c2ccccc2c2cc(CN3CCN(Cc4cccc(Cl)c4)CC3)ccc21", "cell line": "Vero-E6", "assay": "CellTiter-Glo ATP", "conditions": "concentration not given, 72 h, second round 5-point", "scale": "relative to: DMSO 0%, hyamine -100%, more negative, more toxic", "measurement": "cytotoxicity efficacy", "value": "0%"}
{"SMILES": "Cc1ccc2[nH]c3c(c2c1)CCCC3NCCc1cccc(Br)c1 (stereo not shown)", "cell line": "A549", "conditions": "50 µM, 23 h", "measurement": "non-viable cells", "value": "56.4 ± 20.1%"}
{"SMILES": "CC(c1ccccc1)(c1ccc(O)cc1)c1ccc(O)cc1", "cell line": "HepG2 spheroids", "assay": "annexin V-FITC/PI flow cytometry", "conditions": "0.1 µM, 24 h", "measurement": "necrotic cells", "value": "5.96 ± 1.8%"}
{"SMILES": "O=NN1CC2CC(C1)c1cc3nccnc3cc12", "cell line": "TK6", "conditions": "40 µM, 4 h, together with: hamster liver S9", "scale": "relative to: vehicle", "measurement": "relative survival", "value": "122%"}
{"SMILES": "CC(C)C[C@@H](NC(=O)[C@H](N)CCCCN)C(=O)N[C@H](CC(C)C)C(=O)N[C@H](Cc1ccccc1)C(=O)N[C@H](Cc1ccccc1)C(=O)N[C@H](C)C(N)=O", "cell line": "NGF-differentiated PC-12 neurons", "conditions": "160 µM, 24 h", "scale": "relative to: untreated", "measurement": "viability", "value": "91%"}
{"SMILES": "CNCCN(C)c1nc(NC(C)c2ccccc2)c2ccccc2n1 (stereo not shown)", "cell line": "Vero-E6", "assay": "CellTiter-Glo ATP", "conditions": "72 h, second round 5-point", "scale": "relative to: DMSO 0%, hyamine -100%, more negative, more toxic", "measurement": "maximum response", "value": "-1.93%"}
{"SMILES": "CC[C@H](C)[C@H](NC(=O)[C@H](C)NC(=O)[C@H](CCCNC(=N)N)NC(=O)[C@H](CCCNC(=N)N)NC(=O)[C@@H](NC(=O)[C@H](CO)NC(=O)[C@H](CC(N)=O)NC(=O)[C@@H](NC(=O)[C@H](Cc1ccccc1)NC(=O)[C@H](CO)NC(=O)[C@H](CCCCN)NC(=O)[C@@H](NC(=O)[C@H](Cc1ccccc1)NC(=O)[C@H](CCCCN)NC(=O)[C@@H](N)C(C)C)C(C)C)[C@@H](C)CC)[C@@H](C)CC)C(=O)N[C@@H](CC(N)=O)C(=O)N[C@@H](CCCCN)C(=O)N[C@@H](Cc1ccc(O)cc1)C(=O)N1CCC[C@H]1C(=O)N1CCC[C@H]1C(=O)N[C@H](C(=O)N[C@@H](CC(N)=O)C(=O)N[C@@H](CC(C)C)C(=O)N[C@@H](CCCCN)C(=O)N[C@H](C(=O)N[C@@H](CCCCN)C(=O)N[C@@H](CS)C(=O)N[C@@H](CC(N)=O)C(=O)N[C@@H](CCCNC(=N)N)C(=O)N[C@@H](CC(C)C)C(=O)N[C@@H](CC(N)=O)C(=O)N[C@@H](CO)C(=O)N[C@H](C(=O)N[C@@H](CC(=O)O)C(=O)N1CCC[C@H]1C(=O)N[C@@H](CCCCN)C(=O)N[C@@H](CCC(N)=O)C(=O)N1CCC[C@H]1C(=O)N1CCC[C@H]1C(=O)N[C@@H](CCCNC(=N)N)C(=O)N1CCC[C@H]1C(=O)N[C@@H](Cc1ccccc1)C(=O)N[C@@H](CCCNC(=N)N)C(=O)N[C@@H](CO)C(=O)N[C@@H](Cc1ccccc1)C(=O)N[C@H](C(=O)O)C(C)C)[C@@H](C)CC)[C@@H](C)CC)[C@@H](C)CC", "cell line": "THP-1, PMA-differentiated", "assay": "cell viability, MTT", "measurement": "CC50", "value": "43 µM"}
{"SMILES": "CC(C)C[C@@H](NC(=O)[C@H](N)CCCCN)C(=O)N1CCC[C@@H]1C(=O)N[C@H](Cc1ccccc1)C(=O)N[C@H](Cc1ccccc1)C(N)=O", "cell line": "NGF-differentiated PC-12 neurons", "conditions": "10 µM, 24 h", "scale": "relative to: untreated", "measurement": "viability", "value": "100%"}
{"SMILES": "Cc1c2ccccc2c(C)c2c1ccc1ccccc12", "cell line": "HepaRG", "assay": "micronucleus formation", "conditions": "24 (unit not given)", "measurement": "lowest effective concentration", "value": "12.5 µM"}
{"SMILES": "Cc1cc(Nc2ccnc3ccc(-c4ccc(S(=O)(=O)N5CCOCC5)cc4)cc23)on1", "cell line": "NIH 3T3", "assay": "cytotoxicity, PrestoBlue", "conditions": "96 h, 2% FBS", "measurement": "TC50", "value": "> 20 µM"}
{"SMILES": "Cc1ccc(-c2nn3c(Cn4cnc5ccccc54)nnc3s2)cc1C", "cell line": "HEp-2", "assay": "cytotoxicity", "measurement": "CC50", "value": "89.6 µM"}
{"SMILES": "CCCCN(C)CCNC(=O)c1cc(-c2ccc(Cl)s2)nc2ccccc12", "cell line": "Vero-E6", "assay": "CellTiter-Glo ATP", "conditions": "concentration not given, 72 h, retest 8-point duplicates", "scale": "relative to: DMSO 0%, hyamine -100%, more negative, more toxic", "measurement": "cytotoxicity efficacy", "value": "-55.7%"}
{"SMILES": "CC(C)C[C@@H](N)C(=O)N[C@H](CC(C)C)C(=O)N[C@H](Cc1ccccc1)C(=O)N[C@H](Cc1ccccc1)C(=O)N[C@H](C)C(=O)N[C@H](CCC(=O)O)C(N)=O", "cell line": "NGF-differentiated PC-12 neurons", "conditions": "40 µM, 24 h", "scale": "relative to: untreated", "measurement": "viability", "value": "97.2%"}
{"SMILES": "CC(C)C[C@H](NC(=O)[C@H](C)NC(=O)[C@@H](NC(=O)[C@H](CCCNC(=N)N)NC(=O)[C@H](CC(C)C)NC(=O)[C@H](Cc1c[nH]c2ccccc12)NC(=O)[C@@H]1CCCN1C(=O)[C@@H](N)CCCCN)C(C)C)C(=O)N[C@@H](CS)C(=O)N1CCC[C@H]1C(=O)NCC(=O)O", "cell line": "HEp-2", "assay": "WST-1", "conditions": "256 µM, 24 h", "measurement": "viability", "value": "100% and 98.9% and 103%"}
{"SMILES": "Oc1ccc(C(c2ccc(O)cc2)(C(F)(F)F)C(F)(F)F)cc1", "cell line": "HepG2 spheroids, dissociated", "assay": "annexin V-FITC/PI flow cytometry", "conditions": "10 µM, 96 h", "measurement": "late apoptotic cells", "value": "30.5 ± 4.6%"}
{"SMILES": "CC(C)C[C@@H](NC(=O)[C@H](N)CCCCN)C(=O)N[C@H](CC(C)C)C(=O)N[C@H](Cc1ccccc1)C(=O)N[C@H](Cc1ccccc1)C(=O)N[C@H](C)C(=O)N[C@H](CCC(=O)O)C(N)=O", "cell line": "NGF-differentiated PC-12 neurons", "conditions": "20 µM, 24 h", "scale": "relative to: untreated", "measurement": "viability", "value": "100%"}
{"SMILES": "COc1ccc([C@H]2COc3cc(O)ccc3C2)c(O)c1", "cell line": "Calu-3", "conditions": "50 µM", "measurement": "cytotoxicity", "value": "20%"}
{"SMILES": "CN1CCCN(S(=O)(=O)c2ccc(-c3ccc4ncc(C#N)c(Nc5ccc(OCc6ccccc6)c(Cl)c5)c4c3)cc2)CC1", "cell line": "NIH 3T3", "assay": "PrestoBlue", "test system": "2% FBS medium", "conditions": "96 h", "measurement": "TC50", "value": "11 µM"}
{"SMILES": "N.N.[Cl][Pt][Cl]", "cell line": "HepaRG", "conditions": "at 55% cytotoxicity", "scale": "relative to: HepG2", "measurement": "micronucleus frequency ratio", "value": "5 fold"}
{"SMILES": "C/C=C(/C)C(=O)OC[C@H]1[C@@H](Cc2ccc(C(F)(F)F)cc2)CO[C@@H]1c1ccccc1", "cell line": "rat aortic VSMCs", "conditions": "30 µM, 24.5 h", "measurement": "LDH release", "value": "6 ± 2.4%"}
{"SMILES": "CC(C)C[C@@H](NC(=O)[C@H](N)CCCCN)C(=O)N[C@H](CC(C)C)C(=O)N[C@H](Cc1ccccc1)C(N)=O", "cell line": "NGF-differentiated PC-12 neurons", "conditions": "20 µM, 24 h", "scale": "relative to: untreated", "measurement": "viability", "value": "98.7%"}
{"SMILES": "CC(C)c1cc2c(c(O)c1O)[C@@]1(C(=O)O)CCCC(C)(C)[C@@H]1CC2", "cell line": "HeLa, SW480 and HCT-116", "assay": "CCK-8", "conditions": "80 µM, 24 h", "measurement": "cytotoxicity", "value": "not toxic"}
{"SMILES": "CN1CCN(S(=O)(=O)c2ccc(-c3ccc4c(Nc5ccc(OCc6cccc(F)c6)c(Cl)c5)ccnc4c3)cc2)CC1", "cell line": "NIH 3T3", "assay": "PrestoBlue", "test system": "2% FBS medium", "conditions": "96 h", "measurement": "TC50", "value": "14 µM"}
{"SMILES": "Cc1c(Cl)cccc1-c1ccc(CNCCSc2nnnn2-c2ccccc2)o1", "cell line": "Vero-E6", "assay": "CellTiter-Glo ATP", "conditions": "concentration not given, 72 h, first round 5-point", "scale": "relative to: DMSO 0%, hyamine -100%, more negative, more toxic", "measurement": "cytotoxicity efficacy", "value": "0%"}
{"SMILES": "CC(C)C[C@@H](N)C(=O)N[C@H](Cc1ccccc1)C(=O)N[C@H](Cc1ccccc1)C(=O)N[C@H](C)C(N)=O", "cell line": "NGF-differentiated PC-12 neurons", "conditions": "5 µM, 24 h", "scale": "relative to: untreated", "measurement": "viability", "value": "100%"}
{"SMILES": "COc1ccc(Nc2ccnc3ccc(-c4ccc(S(=O)(=O)N5CCOCC5)cc4)cc23)cc1Cl", "cell line": "NIH 3T3", "assay": "cytotoxicity, PrestoBlue", "conditions": "96 h, 2% FBS", "measurement": "TC50", "value": "> 20 µM"}
{"SMILES": "c1ccc(CCNC2CCCc3c2oc2ccc(-c4ccccc4)cc32)cc1 (stereo not shown)", "cell line": "A549", "conditions": "50 µM, 23 h", "measurement": "non-viable cells", "value": "5.9 ± 7.8%"}
{"SMILES": "Cc1ccc2c(NC(C)c3ccccc3)nc(N3CCNCC3)nc2c1 (stereo not shown)", "cell line": "Vero-E6", "assay": "CellTiter-Glo ATP", "conditions": "concentration not given, 72 h, retest 8-point duplicates", "scale": "relative to: DMSO 0%, hyamine -100%, more negative, more toxic", "measurement": "cytotoxicity efficacy", "value": "-14.4%"}
{"SMILES": "Clc1ccc(-c2nn3c(Cn4cnc5ccccc54)nnc3s2)cc1", "cell line": "HEp-2", "assay": "cytotoxicity", "measurement": "CC50", "value": "> 100 µM"}
{"SMILES": "CN1CCCC2(C1)CN(Cc1cccnc1)c1ccc(C(=O)NCC3CCCCC3)cc12 (stereo not shown)", "cell line": "Vero-E6", "assay": "CellTiter-Glo ATP", "conditions": "72 h, retest 8-point duplicates", "scale": "relative to: DMSO 0%, hyamine -100%, more negative, more toxic", "measurement": "maximum response", "value": "-3.81%"}
{"SMILES": "Oc1ccc(C2(c3ccc(O)cc3)c3ccccc3-c3ccccc32)cc1", "cell line": "HepG2 spheroids", "assay": "annexin V-FITC/PI flow cytometry", "conditions": "40 µM, 24 h", "measurement": "necrotic cells", "value": "5.6 ± 2.47%"}
{"note": "A few entries again:"}
{"SMILES": "COc1ccc(Nc2ccnc3ccc(-c4ccc(S(=O)(=O)N5CCOCC5)cc4)cc23)cc1Cl", "cell line": "NIH 3T3", "assay": "cytotoxicity, PrestoBlue", "conditions": "96 h, 2% FBS", "measurement": "TC50", "value": "> 20 µM"}
{"SMILES": "c1ccc(CCNC2CCCc3c2oc2ccc(-c4ccccc4)cc32)cc1 (stereo not shown)", "cell line": "A549", "conditions": "50 µM, 23 h", "measurement": "non-viable cells", "value": "5.9 ± 7.8%"}
